Experimental data pooled from the literature.
Each line is one published result; not all experiments were run side by side. Values joined by “and” are separate records of one study, mostly repeats; a detail may differ. ± gives the spread as reported.

SMILES = Cn1cc(-c2ccc(-c3cncc(Cl)c3N3CCC4(CCNC4=O)CC3)cc2)cn1; test = tumour weight; test system = mouse SW-620 xenograft; setting = 70 mg/kg bid; endpoint = T/C; result = 30%
SMILES = C[C@@H](O)CCOC(=O)C[C@@H](C)O; test = refers to: C16:1 acylcarnitine; test system = human, plasma; setting = 60 min, log2-transformed values; endpoint = metabolite level; result = -5.57 ± 0.65 µmol/L
SMILES = O=C(O)CNC(=O)Cc1ccccc1; test system = ventricular cardiomyocytes, C57BL/6 mouse; setting = dose not given, 0.336 s; endpoint = sarcomere length; result = 1.72 µm
SMILES = C[C@H](Oc1ccc(Br)cc1-c1ccon1)C(=O)O; test = handgrip dynamometry; test system = healthy human males; setting = 400 mg twice daily, multiple doses, from 90% to 5% of MVC; how to read = reference: placebo; endpoint = grip release time; result = -33.4 ms
SMILES = CN(C(=O)n1cnc(-c2ccc[n+]([O-])c2)c1)C1CCCCC1; test = refers to: LEA; test system = human, plasma; setting = 5 mg single dose; endpoint = AUC(0-t); result = 299 ng·h/mL
SMILES = NCC(=O)Nc1cncc(-c2nn3c(=O)cc(N4CCNCC4)nc3s2)c1; test = ADP-induced platelet aggregation, light transmission aggregometry; test system = human, stable CAD on aspirin, ex vivo platelets; setting = subcutaneous, 0.05 mg/kg, 30 min post-dose, mean value, with: ADP 20 µM; endpoint = inhibition; result = 71.5%
SMILES = C[C@H]1C[C@H]2CSC(N)=N[C@@]2(c2nc(NC(=O)c3ccc(OC(F)F)cn3)cs2)CO1; test = refers to: Aβ1-40; test system = healthy adults, plasma; setting = 3 mg single dose, 8 h post-dose; how to read = reference: placebo; endpoint = percent change from baseline; result = -50.5%
SMILES = COc1nnc2ccc(N3CCC(c4ccc(OCCN5CCN(C)C(=O)[C@H]5C)cc4)CC3)nn12; test system = patients; setting = 10 mg twice daily, monotherapy and combination cohorts; endpoint = time HEXIM1 above threshold; result = 9.1 h
SMILES = O[C@H]1CCCN[C@@H]1CCCn1cnc2c(Cl)c(Cl)ccc21; test = ELISA, refers to: Pro-C3; test system = healthy human volunteers, serum; setting = intraduodenal, 50 mg twice daily, day 14, multiple ascending dose; endpoint = AUC(0-tau); result = 158 ng·h/mL
SMILES = N#Cc1ccc2c(c1)[C@H]1CCCN(C(=O)c3ccc4[nH]cnc4c3)[C@H]1C2; test system = human, Phase II trial; setting = oral, 20 mg once daily, day 28, adjusted mean, SE; endpoint = body weight change from baseline; result = 0.6 kg
SMILES = C[C@H]1O[C@@H](O[C@H]2CC[C@@]3(C)[C@@H](CC[C@]4(C)[C@@H]3C=C[C@]35OC[C@@]6(CCC(C)(C)C[C@H]63)[C@@H](O)C[C@]54C)[C@]2(C)CO)[C@H](O)[C@@H](O[C@@H]2O[C@H](CO)[C@@H](O)[C@H](O)[C@H]2O)[C@H]1O; test = Western blot, refers to: Mtor; test system = chronic-plus-binge ethanol-fed mice, liver; setting = dose not given, high dose, unit not given; how to read = reference: β-actin; endpoint = protein level; result = 1.17 and 0.881 and 0.765
SMILES = Cc1cc(-c2nc(C(=O)Nc3cc4oc(N5CCOCC5)nc4nc3N3CC[C@@H](O)C3)co2)ccn1; test = 3D immunohistochemistry, CLARITY, refers to: phospho-ERK1/2; test system = mouse, intracranial A20 tumour; setting = dose not given; how to read = reference: total cells; endpoint = pERK1/2 positive cells; result = 5.3%
SMILES = [Cl-].[Cl-].[Pt+2].[Ru+2].c1ccc(-c2nc3ccccc3nc2-c2ccccn2)nc1.c1cnc2c(c1)ccc1cccnc12.c1cnc2c(c1)ccc1cccnc12; test = chloride substitution, UV-vis kinetics; test system = aqueous buffer; setting = concentration not given, pH 7.2, second substitution step, with: guanosine 5'-monophosphate; endpoint = negative activation entropy; result = 108 ± 7 J/(mol·K)
SMILES = O=C1N(Cc2ccccc2Cl)c2ccccc2C12NN=C(c1ccccc1)S2 (stereo not drawn); test system = SK-BR-3 xenograft, mouse; setting = intravenous, 864 mg/kg, subcutaneous xenograft; how to read = reference: vehicle; endpoint = T/C; result = 72%
SMILES = N#Cc1ccn2c(-c3ccncc3)c(-c3ccc(F)cc3)nc2c1; test = kinase binding, competitor, MIB/MS competition, refers to: FPK1; test system = Candida albicans cell lysate; setting = 1 µM; how to read = reference: DMSO; endpoint = log2 fold change; result = -0.0993
SMILES = COc1ccc2c(c1)CC[C@@H]1[C@@H]2CC[C@]2(C)[C@@H](NCCCCCCN3C(=O)C=CC3=O)CC[C@@H]12; test = immunostaining; test system = humanized mouse, SAH model, meninges; setting = dose not given; endpoint = p-PKA level; result = 38.9 MFI and 46.5 MFI and 42.6 MFI
SMILES = CSCCNc1nc(SCCC(F)(F)F)nc2c1ncn2[C@@H]1O[C@H](COP(=O)(O)OP(=O)(O)C(Cl)(Cl)P(=O)(O)O)[C@@H](O)[C@H]1O; test = ADP-induced platelet aggregation, Multiplate; test system = human patients, whole blood; setting = 1 h; endpoint = platelet aggregation; result = 25.9 ± 13.6 U
SMILES = CC(C)C[C@@H](NC(=O)[C@H](C)NC(=O)CNC(=O)[C@@H](NC=O)C(C)C)C(=O)N[C@@H](C)C(=O)N[C@@H](C(=O)N[C@H](C(=O)N[C@@H](C(=O)N[C@@H](Cc1c[nH]c2ccccc12)C(=O)N[C@H](CC(C)C)C(=O)N[C@@H](Cc1cc2ccccc2[nH]1)C(=O)N[C@H](CC(C)C)C(=O)N[C@@H](Cc1c[nH]c2ccccc12)C(=O)N[C@H](CC(C)C)C(=O)N[C@@H](Cc1c[nH]c2ccccc12)C(=O)NCCO)C(C)C)C(C)C)C(C)C; test = H+/Na+ transport, pyranine pH-gradient; test system = EYPC/EYPG LUVs 19:1; endpoint = EC50; result = 2.54 ± 0.67 nM

A few entries again:
SMILES = CC(C)C[C@@H](NC(=O)[C@H](C)NC(=O)CNC(=O)[C@@H](NC=O)C(C)C)C(=O)N[C@@H](C)C(=O)N[C@@H](C(=O)N[C@H](C(=O)N[C@@H](C(=O)N[C@@H](Cc1c[nH]c2ccccc12)C(=O)N[C@H](CC(C)C)C(=O)N[C@@H](Cc1cc2ccccc2[nH]1)C(=O)N[C@H](CC(C)C)C(=O)N[C@@H](Cc1c[nH]c2ccccc12)C(=O)N[C@H](CC(C)C)C(=O)N[C@@H](Cc1c[nH]c2ccccc12)C(=O)NCCO)C(C)C)C(C)C)C(C)C; test = H+/Na+ transport, pyranine pH-gradient; test system = EYPC/EYPG LUVs 19:1; endpoint = EC50; result = 2.54 ± 0.67 nM
